Published values pooled from the literature.

Compound	sample	tested at	pH	temperature	notes	absorption maximum
O=c1cc(/C=C/c2ccc(N3CCCC3)cc2)oc(/C=C/c2ccc(N3CCCC3)cc2)c1	acetonitrile/water 1:19 v/v	10 µM	–	298 K	aggregate nanoparticle suspension	511 nm
CCCCN1C(=O)c2cccc3c(NCCN4CCOCC4)ccc(c23)C1=O	DMSO	–	–	–	–	443 nm
CCC1=[N+]2N=C(/C=C/C=C/c3ccc(C(F)(F)F)cc3)C(=O)O[B-]2(c2ccccc2)Oc2cc(N(CC)CC)ccc21 (stereo not drawn)	toluene	–	–	–	–	515 nm
O=c1cc(/C=C/c2ccc(N3CCOCC3)cc2)oc(/C=C/c2ccc(N3CCOCC3)cc2)c1	acetonitrile/water 1:19 v/v	10 µM	–	298 K	aggregate nanoparticle suspension	376 nm
COc1ccc2c(c1)O[B-]1(c3ccccc3)OC(=O)C(c3ccccc3)=N[N+]1=C2C (stereo not drawn)	toluene	–	–	–	–	423 nm
CC1(C)C(/C=C/C2=C(Cl)C(=C/C=C3/N(CCCCCC(=O)O)c4ccccc4C3(C)C)/C[N+](C)(C)C2)=[N+](CCCCCC(=O)O)c2ccccc21	water	–	–	–	–	743 nm
CCCCN1C(=O)c2cccc3c(NCCCCCCCCCCN4CCOCC4)ccc(c23)C1=O	toluene	–	–	–	–	423 nm
O=c1cc(/C=C/c2ccc(N(c3ccccc3)c3ccccc3)cc2)oc(/C=C/c2ccc(N(c3ccccc3)c3ccccc3)cc2)c1	acetonitrile	10 µM	–	298 K	–	409 nm
CCN(CC)c1ccc2c(c1)O[B-]1(c3ccccc3C#N)OC(=O)C(c3ccccc3)=N[N+]1=C2 (stereo not drawn)	toluene	–	–	–	–	472 nm
CCCCN1C(=O)c2cccc3c(NCCCN4CCOCC4)ccc(c23)C1=O	water	–	pH 6.0	–	–	446 nm
CCN(CC)c1ccc2c(c1)O[B-]1(c3ccccc3C)OC(=O)C(c3ccccc3)=N[N+]1=C2 (stereo not drawn)	toluene	–	–	–	–	470 nm
CN1CCN(c2ccc(/C=C/c3cc(=O)cc(/C=C/c4ccc(N5CCN(C)CC5)cc4)o3)cc2)CC1	acetonitrile/water 1:19 v/v	10 µM	–	298 K	aggregate nanoparticle suspension	401 nm
CCC1=[N+]2N=C(/C=C/C=C/c3ccccc3)C(=O)O[B-]2(c2ccccc2)Oc2cc(N(CC)CC)ccc21 (stereo not drawn)	toluene	–	–	–	–	513 nm
CN(C)c1ccc(/C=C/c2cc(=O)cc(/C=C/c3ccc(N(C)C)cc3)o2)cc1	acetonitrile/water 1:19 v/v	10 µM	–	298 K	aggregate nanoparticle suspension	535 nm
COC(=O)c1ccccc1-c1c2ccc(=O)cc-2oc2c1ccc1cccc(N)c12	aqueous HCl 10% DMSO	10 to 15 µM	pH 1.9	–	–	598 nm

Excerpt of the above:
Compound	sample	tested at	pH	temperature	notes	absorption maximum
CCN(CC)c1ccc2c(c1)O[B-]1(c3ccccc3C)OC(=O)C(c3ccccc3)=N[N+]1=C2 (stereo not drawn)	toluene	–	–	–	–	470 nm
